Published values from different studies.
A part holds a random share of what one study measured.

Block 1
Target: RNA binding protein fox-1 homolog 2, RRM domain, GST-SBP tag (RBFOX2, Homo sapiens, UniProt O43251-10, residues 100-194)
Method: RNA Bind-n-Seq
Form: RNA
Matrix: in vitro
Tested at: 365 nM
Notes: natural RNA segment, single round, ends assumed
Relative to: no-protein control
Direction: higher = stronger binding
Residues (chain): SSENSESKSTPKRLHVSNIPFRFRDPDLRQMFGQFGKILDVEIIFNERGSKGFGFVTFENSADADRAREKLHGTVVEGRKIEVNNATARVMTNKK
For `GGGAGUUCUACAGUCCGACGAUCUUUAUUCAAAGUGUAAAAGCACAUACUGCAUUUUCUGCUGAAAGAUCAUUAUGUUUAACAGGCACUUAAUCUCAGUAAAGUCAGUUGCCAGUUAAGUUCCACCCAGUAGUUGGAAUUCUCGGGUGCCAA`, “RBNS enrichment (R)” read 0.408.
`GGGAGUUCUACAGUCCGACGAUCACCACCUGCCACCAAGGUUUCCUCUCUUCCCCCAGGACCUGGGCAGAGCAGGCAUGAGCUGGGCUGUGGUGCAGAGCAAGCAGACCCAGCCACACUGCUCAAAGGUCCCUUGGAAUUCUCGGGUGCCAA` — result for “RBNS enrichment (R)”: 0.649.
Under “RBNS enrichment (R)”, `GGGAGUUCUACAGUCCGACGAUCGAAAAUUUAUGACUACCAAAUAUUUAGGAUACUUAGAAAUAUUUUACUACAUAUGAAUCUGAUAUUCUUAAUAAAGUAUUACUUUAAAUUUUCCAGCAGUAACAUUUAGAUGGAAUUCUCGGGUGCCAA` is recorded as 0.486.
Under “RBNS enrichment (R)”, `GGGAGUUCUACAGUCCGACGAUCCCUCGGCCUCCCAAAGUGCUGGGAUUAGAGGCGUGAGCCACUGCACCUGGCCUGUAGCAAAUAAUUUUUAAGCAUUCUCAAGAUGUAUGAUGUUGGGUUUAACAUCAUAUUGGAAUUCUCGGGUGCCAA` is recorded as 0.323.
Under “RBNS enrichment (R)”, `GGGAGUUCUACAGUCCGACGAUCAAACUCCCUUCCAGAAUUUGUAGCUGAGAUUUCUGAUCUUUAACCGUGUCUACACGAAGCACCCAGUUGACAUCCGACUUGUUUUUGAGACGGGGGUCUCACUUAGCUGUUGGAAUUCUCGGGUGCCAA` is recorded as 0.407.
`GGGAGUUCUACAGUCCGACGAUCCUGUAACAUGGGAAUGGAAAUGUCCCUCUCUGGGCCUGUGUUUCUUUGUGUGUCCAGUGAAGGAACAGAACUAGAAGCCCAUUCAGCAACCUGUGAGAUUCUUACACAGGUGGAAUUCUCGGGUGCCAA` — result for “RBNS enrichment (R)”: 0.4.
For `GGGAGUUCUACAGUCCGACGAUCCAUUUCUUUUUAUAUAUAAACUAUUUAAUAAAAAUGAAAGAUUGAAUGUUCAUGUGUGGGUUAAAAAAAGAAGCUUUAACACUAAUUUUCCAAAGGUUAGGGAAGAUUCCUGGAAUUCUCGGGUGCCAA`, “RBNS enrichment (R)” read 0.801.
`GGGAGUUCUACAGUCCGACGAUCGCUCUUAGGAAAAGAGGCAAACCCACACCCAAAAGUACCUUGUUUUCCUUGGGGAAGAUGCGUGGAGCUGUCCACAGAUAGCCUACCCACUGGAUUGCUACCGCCGUGUGUGGAAUUCUCGGGUGCCAA` — result for “RBNS enrichment (R)”: 0.237.
`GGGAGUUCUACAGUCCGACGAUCGCCCUUGCCUGGGGAAGCCCACCAGGGGUUCUGGCUUCUGAGGGGCACCUGUCCCUCCUCUCCCCUCACCCUACACUUGUUCCAGCUCUUUGAAAUAGUUUGUGUGAAGGUGGAAUUCUCGGGUGCCAA` — result for “RBNS enrichment (R)”: 0.391.
`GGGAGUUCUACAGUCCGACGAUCAGUCAGCCUGGGCCCUUAGCCCAUGACUACCCUCCAGUGAGGCUCUGAGGCCUGGCUAGGGCCCUCCUGGGCAGAGCCCCUGCCUAGCCCUUCAGGCCUGAUGCCUCAGGUGGAAUUCUCGGGUGCCAA`: “RBNS enrichment (R)” 0.19.
`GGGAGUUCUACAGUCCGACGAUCAUAUUUGGAAGGCUUCCAUUUCCAUUGAAAACAAAUCCAUGAGUGAGAGGGAAAGUCUAGUAUCAAUUCUUCUGUUUGCUCGCAAUGACACAAAUAGGUUUUGGGGAUCUUGGAAUUCUCGGGUGCCAA`: “RBNS enrichment (R)” 0.397.
`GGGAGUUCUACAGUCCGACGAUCAGAGCUCAUGUUCAUGUUUUAGAAGCCCUUUCUUUCUAGGUGUCUCUCAAAAGACUGGCUUAAUUGGAAUAAAAUAGCUUUUUUUUUUUAAGUGUCCCAAAGAUAAGAUAUGGAAUUCUCGGGUGCCAA`: “RBNS enrichment (R)” 0.658.

Block 2
Target: Sal-like protein 4, full length isoform A (SALL4, Homo sapiens, UniProt Q9UJQ4, residues 1-1053)
Sequence of UniProt Q9UJQ4 (whole entry, looked up): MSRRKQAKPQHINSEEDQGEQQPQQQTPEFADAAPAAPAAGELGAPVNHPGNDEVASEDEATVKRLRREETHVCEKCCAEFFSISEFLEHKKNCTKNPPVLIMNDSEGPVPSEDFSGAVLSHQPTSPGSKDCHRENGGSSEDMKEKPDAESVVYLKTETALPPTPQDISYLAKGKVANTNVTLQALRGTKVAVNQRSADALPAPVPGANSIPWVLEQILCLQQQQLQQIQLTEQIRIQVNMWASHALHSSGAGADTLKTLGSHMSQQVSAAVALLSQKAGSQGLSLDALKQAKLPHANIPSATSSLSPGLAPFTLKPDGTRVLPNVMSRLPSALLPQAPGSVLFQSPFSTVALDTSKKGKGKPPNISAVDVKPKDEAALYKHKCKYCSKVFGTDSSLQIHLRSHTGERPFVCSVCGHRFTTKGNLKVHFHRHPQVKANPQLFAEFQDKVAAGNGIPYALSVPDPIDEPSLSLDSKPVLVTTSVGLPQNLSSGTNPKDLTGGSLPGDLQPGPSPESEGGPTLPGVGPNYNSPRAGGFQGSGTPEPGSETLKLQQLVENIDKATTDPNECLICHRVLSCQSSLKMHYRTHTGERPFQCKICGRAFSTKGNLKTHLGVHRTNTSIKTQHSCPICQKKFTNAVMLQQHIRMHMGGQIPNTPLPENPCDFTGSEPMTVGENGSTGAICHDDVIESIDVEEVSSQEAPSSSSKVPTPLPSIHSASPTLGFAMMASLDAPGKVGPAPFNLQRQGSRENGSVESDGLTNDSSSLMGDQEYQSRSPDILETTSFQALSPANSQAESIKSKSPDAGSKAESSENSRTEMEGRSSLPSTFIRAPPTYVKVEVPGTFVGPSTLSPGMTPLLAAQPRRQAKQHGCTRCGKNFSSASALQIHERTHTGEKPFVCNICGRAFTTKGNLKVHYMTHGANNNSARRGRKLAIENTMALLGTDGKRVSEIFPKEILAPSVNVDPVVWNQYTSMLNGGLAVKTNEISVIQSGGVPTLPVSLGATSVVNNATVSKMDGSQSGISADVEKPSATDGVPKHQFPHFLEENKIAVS
Method: universal PBM
Form: double-stranded DNA, one strand shown
Matrix: in vitro
Tested at: 600 nM
Notes: 8-mer, flanks averaged, mean of replicates
Direction: higher = stronger binding
`GTTGATTA` gave an E-score of 0.25.
For `ACTATGAC`, the E-score was 0.216.
`GAGGGGTA` gave an E-score of -0.276.
`CTGTACGC` gave an E-score of -0.104.
The E-score of `CATGCAAG` is reported as -0.0218.
With `AAGAGAGG` the E-score was -0.0148.
For `AACTTTGT`, the E-score was 0.141.
`CGCAGAAA` gave an E-score of 0.000425.
For `CTTAGCTA`, the E-score was 0.0898.
`ACTTGTAG` gave an E-score of 0.218.
With `GGATACCA` the E-score was -0.153.
For `AAACATAC`, the E-score was 0.169.
`AAGAATAA` gave an E-score of 0.294.

Block 3
Target: Interferon regulatory factor 3, full length, phosphomimetic (IRF3, Homo sapiens, UniProt Q14653, residues 1-427, S386D/S396D/S398D/S402D/T404D/S405D)
Method: protein-binding microarray
Form: double-stranded DNA, one strand shown
Matrix: in vitro
Tested at: 2540 nM top
Notes: 60-bp whole probe
Together with: salmon DNA 0.4 mg/ml
Relative to: random background probes
Direction: higher = stronger binding
Constant ends, left off below: GCCTAGCAC … GTCTTGATTCGCTTGACGCTGCTG
Construct (chain): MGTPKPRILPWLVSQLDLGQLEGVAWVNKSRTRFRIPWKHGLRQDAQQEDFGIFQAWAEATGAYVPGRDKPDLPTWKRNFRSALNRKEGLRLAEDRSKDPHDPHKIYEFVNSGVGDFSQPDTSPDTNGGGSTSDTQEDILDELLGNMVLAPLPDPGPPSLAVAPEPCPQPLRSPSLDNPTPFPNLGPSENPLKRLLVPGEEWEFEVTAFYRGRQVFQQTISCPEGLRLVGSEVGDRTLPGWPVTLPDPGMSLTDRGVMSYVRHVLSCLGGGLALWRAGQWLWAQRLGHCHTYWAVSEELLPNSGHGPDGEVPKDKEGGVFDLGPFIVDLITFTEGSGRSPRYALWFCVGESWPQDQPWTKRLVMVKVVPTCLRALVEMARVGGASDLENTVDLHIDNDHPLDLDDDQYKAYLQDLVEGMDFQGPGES
Under “fitted relative affinity”, `TCAATTGTGCAATCTTAAACTGTGCTA` is recorded as 0.633 z-score.
`GACGGACTGCGTTTCGGGACGTGCTAG`: “fitted relative affinity” 1.03 z-score.
For `TCATTTTTTCTTTTATTACTGTGCTAG`, “fitted relative affinity” read 2.61 z-score.
Under “fitted relative affinity”, `TTAGGTCTCCTTTTCCTTTCGTGCTAG` is recorded as 5.4 z-score.
`TTAGGTTTACTTTTCCTTTAGTGCTAG`: “fitted relative affinity” 4.13 z-score.
Under “fitted relative affinity”, `TCACTGCTACCCTCTGAAACTGTGCTA` is recorded as -0.306 z-score.
`GTGCCTTTATATACCTGAATGTGCTAG` — result for “fitted relative affinity”: 1.68 z-score.
For `GGCGGTATCGACTTTCGGGACGTGCTA`, “fitted relative affinity” read 1.2 z-score.
`TTAGCACTGAGTATCGATTAGTGCTAG`: “fitted relative affinity” -0.0905 z-score.

Single results of other studies
`PhoQ, residues 284 288 289 292 302 303 SLSVQF` has a fold induction of 0.717 (PhoP, residues 12 14 15 18 19 VHTVL (Escherichia coli, UniProt P23836); Sort-seq, refers to: YFP reporter; E. coli; PhoQ-PhoP variant library, together with: 10 µM Mg2+; relative to: high Mg2+ state, higher = stronger signaling).

For quick reference, copied from above (block 2):
For `ACTATGAC`, the E-score was 0.216.
`GAGGGGTA` gave an E-score of -0.276.
`CTGTACGC` gave an E-score of -0.104.
